# Measurements of several laboratories.
# Each numbered part is a random draw from the data of one study; scales do not carry over between parts. Changes are numbered by the printed parent chain.

# Set 1
# Target: Histone acetyltransferase KAT6A, winged helix 1, GST fusion (KAT6A, Homo sapiens, UniProt Q92794, residues 1-85)
# Method: protein binding microarray
# Form: double-stranded DNA, one strand shown
# Sample: in vitro
# Tested at: not given
# Notes: 8-mer, flanks averaged, mean of 2 arrays, mostly near background
# Relative to: not given
# Direction: higher = stronger binding
# Target sequence (chain): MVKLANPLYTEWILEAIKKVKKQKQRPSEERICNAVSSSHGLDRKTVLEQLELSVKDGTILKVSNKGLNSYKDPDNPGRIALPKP
Oligonucleotide,E-score
ACATCCCA,-0.2
CCGAGTCA,-0.0536
CGCACAAC,0.164
CAGTAGGG,-0.126
AAGACATT,0.0331
CTCGTGTA,-0.0675
ACTCAAAA,-0.128
ATCGTGTA,-0.204
AGAGAAAA,-0.0182
AACCAGAT,-0.172
CGCTTCTA,0.00556
CAGGGCAC,-0.179
GTACGCCA,0.0955

# Set 2
# Target: CCNE1, cyclin fold, Cln2 fusion (human)
# Method: yeast growth competition, sequencing
# Sample: yeast
# Notes: weak parent motif
# Relative to: not given
# Direction: higher = stronger binding
# Starting sequence: CENPC docking peptide (human); VKTKKRLNFDDKV
Substitution,normalised enrichment score
T3A,3.21
K12A,1.64
D10A,0.617
N8A,0.909
K2A,0.653
K4A,0.569
K5R F9L,0.469

# Set 3
# Target: JUNB, bZIP domain (human)
# Method: DHFR protein complementation
# Sample: yeast
# Notes: single substitutions, most at no-binding floor
# Relative to: wild-type JUN-FOS pair
# Direction: higher = stronger binding
# Starting sequence: JUN, bZIP domain (human); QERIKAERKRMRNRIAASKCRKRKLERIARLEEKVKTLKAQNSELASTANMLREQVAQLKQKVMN; partner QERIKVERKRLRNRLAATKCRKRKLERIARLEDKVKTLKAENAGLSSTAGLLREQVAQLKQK
Substitution,binding fitness
N42F,-1.47 natural log
R53P,-1.56 natural log
A57S,-1.35 natural log
N42Q,-1.14 natural log
E32G,-1.48 natural log
K39G,-1.38 natural log
K39L,-1.06 natural log
L31S,-1.5 natural log
E44R,-1.3 natural log
A49K,-1.26 natural log
S47P,-1.49 natural log
E44I,-1.16 natural log
A40F,-1.32 natural log

# Other studies, line by line
Molecule,target,assay,test system,conditions,scale,endpoint,value
"PhoQ, residues 284 288 289 292 302 303 NLMGRA","PhoP, residues 12 14 15 18 19 LWHVM (Escherichia coli, UniProt P23836)","Sort-seq, measured: YFP reporter",E. coli,"PhoQ-PhoP variant library, with: 10 µM Mg2+","relative to: high Mg2+ state, higher = stronger signaling",fold induction,12.8

# Some of these lines once more (set 3):
Substitution,binding fitness
E44I,-1.16 natural log
A49K,-1.26 natural log
E32G,-1.48 natural log
A57S,-1.35 natural log
K39G,-1.38 natural log
